Measurements from different studies.
Compare with care: the assays were run in different laboratories. ± marks the error that the study gave.
polA D424A: polA fragment D424A (Escherichia coli)
B1: DTYMK (Homo sapiens, UniProt P23919); chain MAARRGALIVLEGVDRAGKSTQSRKLVEALCAAGHRAELLRFPERSTEIGKLLSSYLQKKSDVEDHSVHLLFSANRWEQVPLIKEKLSQGVTLVVDRYAFSGVAFTGAKENFSLDWCKQPDVGLPKPDLVLFLQLQLADAAKRGAFGHERYENGAFQERALRCFHQLMKDTTLNWKMVDASKSIEAVHEDIRVLSEDAIRTATEKPLGELWK
B2: TRMT5 E394K (Homo sapiens, UniProt Q32P41); chain FSGRFLKLESHSITESKSLIPVAWTSLTQMLLEAPGIFLLGQRKRFSTMPETETHERETELFSPPSDVRGMTKLDRTAFKKTVNIPVLKVRKEIVSKLMRSLKRAALQRPGIRRVIEDPEDKESRLIMLDPYKIFTHDSFEKAELSVLEQLNVSPQISKYNLELTYEHFKSEEILRAVLPEGQDVTSGFSRIGHIAHLNLRDHQLPFKHLIGQVMIDKNPGITSAVNKINNIDNMYRNFQMEVLSGEQNMMTKVRENNYTYEFDFSKVYWNPRLSTEHSRITELLKPGDVLFDVFAGVGPFAIPVAKKNCTVFANDLNPESHKWLLYNCKLNKVDQKVKVFNLDGKDFLQGPVKEELMQLLGLSKERKPSVHVVMNLPAKAIKFLSAFKWLLDGQPCSSEFLPIVHCYSFSKDANPAEDVRQRAGAVLGISLEACSSVHLVRNVAPNKEMLCITFQIPASVLYKNQTRNPENHEDPPLKRQRTAEAFSDEKTQIVSNT
B3: PPIP5K2 (Homo sapiens, UniProt O43314); chain MSEAPRFFVGPEDTEINPGNYRHFFHHADEDDEEEDDSPPERQIVVGICSMAKKSKSKPMKEILERISLFKYITVVVFEEEVILNEPVENWPLCDCLISFHSKGFPLDKAVAYAKLRNPFVINDLNMQYLIQDRREVYSILQAEGILLPRYAILNRDPNNPKECNLIEGEDHVEVNGEVFQKPFVEKPVSAEDHNVYIYYPTSAGGGSQRLFRKIGSRSSVYSPESNVRKTGSYIYEEFMPTDGTDVKVYTVGPDYAHAEARKSPALDGKVERDSEGKEVRYPVILNAREKLIAWKVCLAFKQTVCGFDLLRANGQSYVCDVNGFSFVKNSMKYYDDCAKILGNIVMRELAPQFHIPWSIPLEAED
B4: curN (Lyngbya majuscula, UniProt Q6DND9); chain AGVPVAGRAQSQPPLQLPISSEFPFAKRTVEVEGATIAYVDEGSGQPVLFLHGNPTSSYLWRNIIPYVVAAGYRAVAPDLIGMGDSAKPDIEYRLQDHVAYMDGFIDALGLDDMVLVIHDWGSVIGMRHARLNPDRVAAVAFMEALVPPALPMPSYEAMGPQLGPLFRDLRTADVGEKMVLDGNFFVETILPEMGVVRSLSEAEMAAYRAPFPTRQSRLPTLQWPREVPIGGEPAFAEAEVLKNGEWLMASPIPKLLFHAEPGALAPKPVVDYLSENVPNLEVRFVGAGTHFLQEDHPHLIGQGIADWLRRNKPHAS
B5: enzyme (UniProt Q53796); chain MTEHPRAHTAHLRTARLELTPLDPAADARHLHHAYGDEEVMRWWTRPACADPAETERYLTSCAAAPGARLWTIRAPDGTVPGMAGLLGGTDVPGLTWLLRRDSWGHGYATEAAAAVVGHALEDGGLDRVEAWIEAGNRRSLAVAARVGLTERARLAQHYPHRPGPHEMVVLGKARAEEPLTTLAVITELPVRDVAATLRLVEAALGARTAFAIGDPPEFAEAALTPWSAGPRFRLAAVPGPGPVEPVRLHLDAAGTADSLHRRAVDAGARVDGPPVRRPWGRSEFVITLPEGHELTVSAPV
B6: TENT2 (Homo sapiens, UniProt Q6PIY7); chain MFPNSILGRPPFTPNHQQHNNFFTLSPTVYSHQQLIDAQFNFQNADLSRAVSLQQLTYGNVSPIQTSASPLFRGRKRLSDEKNLPLDGKRQRFHSPHQEPTVVNQIVPLSGERRYSMPPLFHTHYVPDIVRCVPPFREIAFLEPREITLPEAKDKLSQQILELFETCQQQISDLKKKELCRTQLQREIQLLFPQSRLFLVGSSLNGFGTRSSDGDLCLVVKEEPCFFQVNQKTEARHILTLVHKHFCTRLSGYIERPQLIRAKVPIVKFRDKVSCVEFDLNVNNIVGIRNTFLLRTYAYLENRVRPLVLVIKKWASHHQINDASRGTLSSYSLVLMVLHYLQTLPEPILPSLQKIYPESFSPAIQLHLVHQAPCNVPPYLSKNESNLGDLLLGFLKYYATEFDWNSQMISVREAKAIPRPDGIEWRNKYICVEEPFDGTNTARAVHEKQKFDMIKDQFLKSWHRLKNKRDLNSILPVRAAVLKR
B7: protein (Thermotoga neapolitana, UniProt B9K712); chain MKMLYDLAKKRKTVRRFKKEKPPLEDLIYSLKVANEAPSGMNAQPWRFLIVEDEKLKGQIRRVCERSEKTFYENVRGRLKEWLDEKRFTWRKPFLKEAPYLLLVFSEKSAPYSRESVWLAVGYLLLALEEKGLGSVPYTPPDFREVEKLVNTPSELRLEVILPVGYPDDPKPKYPRNEVIVRYNTF
B8: genB3 Q310N (Micromonospora echinospora, UniProt Q2MG50); chain MDSANLTNRGLVERARRVTAAENYDIGTRFSAMIQSGEGAWLTDVEGNRYVDLTASSGTIILGHRNQAVTEAITRQIRDFGTAFASTLSVPRVELAERLCERYECAEKVVFHKTGSEGTAMAARLARAATGRELILSCGYHGWHEWQLAGETFGYQQTTGVVGFGYNEKALAKMLEAFGNEVAGVLISPELLYFDVEFYQRMYALCARYDVPFMMDEVYTGFRAGPKGVHGLGVPADVVVVSKGLANGHSLAAVMGRRDIIDAYDVSGINGTYTREVPPMAAAMAVLDVLDTPGVYEHAEAMGRRLADGMREILTGEGIPNWVGGPALMFDTVLPNDDLGWEIYKTAHDFGVYFEDSGTQLVTTAFDEAAVDHALTAFRKATRQVIADRPDIAPTSGGELTEERKLDFAEEAFGGLLRDDERTNALIDETIEKVVNRDRSIKPVLIPAQN
B9: enzyme (Streptomyces venezuelae, UniProt Q9ZGI2); chain SGADTGAGAGMFRALFRQAVEDDRYGEFLDVLAEASAFRPQFASPEACSERLDPVLLAGGPTDRAEGRAVLVGCTGTAANGGPHEFLRLSTSFQEERDFLAVPLPGYGTGTGTGTALLPADLDTALDAQARAILRAAGDAPVVLLGHSGGALLAHELAFRLERAHGAPPAGIVLVDPYPPGHQEPIEVWSRQLGEGLFAGELEPMSDARLLAMGRYARFLAGPRPGRSSAPVLLVRASEPLGDWQEERGDWRAHWDLPHTVADVPGDHFTMMRDHAPAVAEAVLSWLDAIEGIEGAGK

Substance | target or system | assay | system | conditions | scale | endpoint | result
B1 (DTYMK) | Cc1cn([C@H]2C[C@H](O)[C@@H](COP(=O)(O)O)O2)c(=O)[nH]c1=O | steady-state kinetics |  | with: ATP 2 mM, Mg2+ 2 mM |  | kcat | 3 ± 0.1 s⁻¹
B2 (TRMT5 E394K) | C[S+](CC[C@H](N)C(=O)O)C[C@H]1O[C@@H](n2cnc3c(N)ncnc32)[C@H](O)[C@@H]1O | steady-state kinetics |  | 37 °C |  | kcat | 0.023 ± 0.003 s⁻¹
B3 (PPIP5K2) | O=P(O)(O)O[C@H]1[C@@H](OP(=O)(O)O)[C@H](OP(=O)(O)O)[C@@H](OP(=O)(O)OP(=O)(O)O)[C@H](OP(=O)(O)O)[C@H]1OP(=O)(O)O | steady-state kinetics |  |  |  | kcat | 0.13 ± 0.01 s⁻¹
CCTCTTCCCTCACCTCTTCTTGACCTCATTCGTACCCATTGACCTTCGCAACCACCTGCGAAGGTCAATGGGTACGAATGAGGT (hairpin DNA; hairpin, 5' overhang, dG-C8-FABP 22, 3' ddT) | polA D424A | SPR |  | binary |  | Kd | 0.27 ± 0.02 nM
enzyme (Actinoalloteichus caeruleus, UniProt M1F4W9) | CC(C)C[C@H](NC(=O)c1cc(O)cc(-c2ccccn2)n1)C(=O)O | steady-state kinetics |  | pH 8, 30 °C |  | kcat | 12.7 ± 0.779 s⁻¹
B4 (curN) | CC1=[N+]2C(=C(CCl)c3ccc(C)n3[B-]2(F)F)C=C1 | steady-state kinetics |  | pH 8, 30 °C |  | kcat | 2.9 ± 0.6 s⁻¹
B5 (enzyme) | Cc1c(N)nc([C@H](CC(N)=O)NC[C@H](N)C(N)=O)nc1C(=O)N[C@H](C(=O)N[C@H](C)[C@@H](O)[C@H](C)C(=O)N[C@H](C(=O)NCCc1nc(-c2nc(C(=O)NCCCCNC(=N)N)cs2)cs1)[C@@H](C)O)[C@@H](O[C@@H]1O[C@@H](CO)[C@@H](O)[C@H](O)[C@@H]1O[C@H]1O[C@H](CO)[C@@H](O)[C@H](OC(N)=O)[C@@H]1O)c1c[nH]cn1 | steady-state kinetics |  | pH 7.5, 30 °C |  | kcat | 0.2 ± 0.0333 s⁻¹
B6 (TENT2) | O=c1ccn([C@@H]2O[C@H](COP(=O)(O)OP(=O)(O)OP(=O)(O)O)[C@@H](O)[C@H]2O)c(=O)[nH]1 | steady-state kinetics |  | pH 8, 37 °C |  | kcat | 0.000248 ± 1.17e-05 s⁻¹
CCTCTTCCCTCACCTCTTCTTGACCTCATTCGTACCCATTGACCTTCGCAACCACCTGCGAAGGTCAATGGGTACGAATGAGGT (hairpin DNA; hairpin, 5' overhang, 3' ddT) | polA D424A | SPR |  | binary |  | Kd | 1.3 ± 0.3 nM
enzyme (UniProt A0A2P1BT29) | C=C1OC(=O)C(C(=O)CC[C@H](C)C(=O)/C=C/C=C/C(C)=C/C)=C1O | steady-state kinetics |  | pH 8, 30 °C |  | kcat | 0.627 ± 0.0237 s⁻¹
B7 (protein) | N[C@@H](Cc1ccc(O)c(I)c1)C(=O)O | steady-state kinetics |  | pH 7.4, 60 °C |  | kcat | 0.45 ± 0.183 s⁻¹
enzyme (Streptomyces platensis, UniProt A0A0A0V031) | C[C@@]12CCC[C@@](C)(C(=O)OP(=O)(O)OC[C@H]3O[C@@H](n4cnc5c(N)ncnc54)[C@H](O)[C@@H]3O)[C@H]1C[C@@H](O)[C@]13C[C@H]4C[C@H](O[C@@]4(C)C1)[C@@H]23 | steady-state kinetics |  | pH 7.8, 25 °C |  | kcat | 22 s⁻¹
B8 (genB3 Q310N) | CN[C@@H]1[C@@H](O)[C@@H](O[C@@H]2[C@@H](O)[C@H](O[C@H]3O[C@H](CN)[C@@H](O)[C@H](OP(=O)(O)O)[C@H]3N)[C@@H](N)C[C@H]2N)OC[C@]1(C)O | steady-state kinetics |  | 30 °C |  | kcat | 0.0258 ± 0.000667 s⁻¹
B9 (enzyme) | CC[C@@H](O)[C@H](C)/C=C/C(=O)[C@H](C)C[C@H](C)[C@H](OC)[C@@H](C)C(=O)SCCNC(C)=O | steady-state kinetics |  |  |  | kcat | 0.193 ± 0.004 s⁻¹
GACAUGGUCCGGUAGUUCAGUUGGUUAGAAUGCCUGCCUGUCACGCAGGAGGUCGCGGGUUCGAGUCCCGUCCGGACCG (tRNA (Bacillus subtilis); 5'-GMPS, tRNA fold) | PRORP1 77-572 Y133A (Arabidopsis thaliana, UniProt Q66GI4) | fluorescence anisotropy | folded RNA | NaCl 1 M | baseline: wild-type target | binding free energy loss | 1.6 kcal/mol

A few entries again:
Substance | target or system | assay | system | conditions | scale | endpoint | result
enzyme (Streptomyces platensis, UniProt A0A0A0V031) | C[C@@]12CCC[C@@](C)(C(=O)OP(=O)(O)OC[C@H]3O[C@@H](n4cnc5c(N)ncnc54)[C@H](O)[C@@H]3O)[C@H]1C[C@@H](O)[C@]13C[C@H]4C[C@H](O[C@@]4(C)C1)[C@@H]23 | steady-state kinetics |  | pH 7.8, 25 °C |  | kcat | 22 s⁻¹
B3 (PPIP5K2) | O=P(O)(O)O[C@H]1[C@@H](OP(=O)(O)O)[C@H](OP(=O)(O)O)[C@@H](OP(=O)(O)OP(=O)(O)O)[C@H](OP(=O)(O)O)[C@H]1OP(=O)(O)O | steady-state kinetics |  |  |  | kcat | 0.13 ± 0.01 s⁻¹
